Results collected from several papers.
± marks the error that the study gave.

`CN1CCN(c2ccc3nc(-c4c(N)c5c(F)cccc5[nH]c4=O)[nH]c3c2)CC1` gave a Cmax of 279 ng/mL (patients, plasma; oral, 300 mg, day 1, maximum concurrent dosing, together with: gemcitabine and capecitabine).
The Cmax of `CC(C)=CCC[C@](C)(O[C@@H]1O[C@H](CO)[C@@H](O)[C@H](O)[C@H]1O)[C@H]1CC[C@]2(C)[C@@H]1[C@H](O)C[C@@H]1[C@@]3(C)CC[C@H](O[C@@H]4O[C@H](CO)[C@@H](O)[C@H](O)[C@H]4O[C@@H]4O[C@H](CO)[C@@H](O)[C@H](O)[C@H]4O)C(C)(C)[C@@H]3CC[C@]12C` is reported as 2.55 ± 1.81 ng/mL (LC-MS/MS; healthy female volunteers, serum; oral, 3 g red ginseng).
`Cn1c(-c2ccc(C(N)=O)cc2F)nnc1C(C)(C)Oc1c(F)cc(Cl)cc1F` has a Cmax of 252 ng/mL (elderly non-Japanese subjects, plasma; oral, 20 mg single dose, day 1, mean).
`CC1=C2C[C@H]3[C@@H](CC[C@@H]4C[C@H](NS(C)(=O)=O)CC[C@@]43C)[C@@H]2CC[C@@]2(C1)O[C@@H]1C[C@H](C)CN[C@H]1[C@H]2C` gave a Cmax of 105 ng/mL (patients, plasma; oral, 60 mg daily, day 22, cycle 1).
`Cc1nc(-c2ccc(OCC(C)C)c(C#N)c2)sc1C(=O)O` gave a Cmax of 619 ng/mL (healthy men, plasma; oral, 40 mg once daily, day 14, geometric mean, together with: verinurad 10 mg).
For `COc1cc(OC)c(/C=C/S(=O)(=O)Cc2ccc(OC)c(NCC(=O)O)c2)c(OC)c1`, the Cmax was 1840 ± 1310 ng/mL (cancer patients, phase I, plasma; oral, 280 mg twice daily, day 1 cycle 1).
`Cc1ccc(NC(=O)c2ccc(CN3CCN(C)CC3)cc2)cc1Nc1nccc(-c2cncc(-c3oncc3C)c2)n1` gave a Cmax of 2560 ng/mL (Parkinson's disease patients, plasma; oral, 50.0 mg once daily, day 7, 7-day dosing, mean).
The Cmax of `CN(C)C(=O)c1cc2cnc(Nc3ccc(N4CCNCC4)cn3)nc2n1C1CCCC1` is reported as 2700 ng/mL (Japanese cancer patients, plasma; oral, 600 mg, steady state, with proton pump inhibitor, geometric mean).
With `Cc1cc(Nc2cc3ncccc3c(N[C@@H]3C[C@H]4CC[C@@H](C3)N4CCC#N)n2)n[nH]1` the Cmax was 305 ng/mL (pregnant rabbit, maternal plasma; oral, 60 mg/kg/day, gestation day 7).
For `CS(=O)(=O)n1cc2c(n1)CN([C@H]1CO[C@H](c3cc(F)ccc3F)[C@@H](N)C1)C2`, the Cmax was 278 nM (healthy Japanese men, plasma; oral, 10 mg once weekly, day 15).
With `CC(C)C(=O)OCC(=O)[C@@]12O[C@H](C3CCCCC3)O[C@@H]1C[C@H]1[C@@H]3CCC4=CC(=O)C=C[C@]4(C)[C@H]3[C@@H](O)C[C@@]12C` the Cmax was 0.096 ± 0.007 ng/mL (children with asthma, serum; inhalation with spacer, 80 µg, day 7, steady state).
`Cc1ccc(Sc2ccccc2N2CCNCC2)c(C)c1` gave a Cmax of 21.2 ng/mL (healthy men, plasma; oral, 10 mg once daily, fed, day 12).
For `CC(C(=O)O)c1ccc(-c2ccccc2)c(F)c1` (stereo not shown), the Cmax was 9100 ng/mL (healthy volunteers, plasma; oral, 100 mg, geometric mean, together with: control beverage 250 mL).

Excerpt of the above:
`Cn1c(-c2ccc(C(N)=O)cc2F)nnc1C(C)(C)Oc1c(F)cc(Cl)cc1F` has a Cmax of 252 ng/mL (elderly non-Japanese subjects, plasma; oral, 20 mg single dose, day 1, mean).
For `CS(=O)(=O)n1cc2c(n1)CN([C@H]1CO[C@H](c3cc(F)ccc3F)[C@@H](N)C1)C2`, the Cmax was 278 nM (healthy Japanese men, plasma; oral, 10 mg once weekly, day 15).
